Published values from different studies.
Compare with care: the assays were run in different laboratories. Numbers after ± are the reported error.
SYK: Tyrosine-protein kinase SYK (SYK, Homo sapiens, UniProt P43405)
Sequence of UniProt P42337 (whole entry, looked up): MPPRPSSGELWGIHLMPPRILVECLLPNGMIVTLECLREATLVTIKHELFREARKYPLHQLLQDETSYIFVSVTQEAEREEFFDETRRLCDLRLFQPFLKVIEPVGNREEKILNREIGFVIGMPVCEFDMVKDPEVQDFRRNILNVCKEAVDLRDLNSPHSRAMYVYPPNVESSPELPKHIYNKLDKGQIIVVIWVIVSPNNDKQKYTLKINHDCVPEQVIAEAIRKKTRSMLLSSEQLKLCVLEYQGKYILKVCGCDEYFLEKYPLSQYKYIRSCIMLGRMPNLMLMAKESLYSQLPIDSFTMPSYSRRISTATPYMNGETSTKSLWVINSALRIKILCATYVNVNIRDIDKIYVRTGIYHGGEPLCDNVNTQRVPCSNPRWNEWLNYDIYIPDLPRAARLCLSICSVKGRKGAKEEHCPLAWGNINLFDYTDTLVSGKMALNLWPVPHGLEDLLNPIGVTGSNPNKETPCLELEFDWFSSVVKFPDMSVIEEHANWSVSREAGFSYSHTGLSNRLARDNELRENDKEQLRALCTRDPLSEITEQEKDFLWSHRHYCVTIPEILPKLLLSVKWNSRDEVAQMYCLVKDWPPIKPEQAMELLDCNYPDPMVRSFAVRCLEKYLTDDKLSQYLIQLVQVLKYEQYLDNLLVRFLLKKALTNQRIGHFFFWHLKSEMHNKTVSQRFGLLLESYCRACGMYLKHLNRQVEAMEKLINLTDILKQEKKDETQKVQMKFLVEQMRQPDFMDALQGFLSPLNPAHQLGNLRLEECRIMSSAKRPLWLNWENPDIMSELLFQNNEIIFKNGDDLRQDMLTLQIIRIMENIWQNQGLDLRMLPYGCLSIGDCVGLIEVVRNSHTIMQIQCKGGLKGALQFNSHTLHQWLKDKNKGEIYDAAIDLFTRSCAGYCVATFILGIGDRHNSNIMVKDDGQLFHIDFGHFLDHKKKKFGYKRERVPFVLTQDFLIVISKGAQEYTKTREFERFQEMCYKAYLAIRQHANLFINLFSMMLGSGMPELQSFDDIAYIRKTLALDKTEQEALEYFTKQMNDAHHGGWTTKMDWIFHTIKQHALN
Sequence of UniProt Q53GS9 (whole entry, looked up): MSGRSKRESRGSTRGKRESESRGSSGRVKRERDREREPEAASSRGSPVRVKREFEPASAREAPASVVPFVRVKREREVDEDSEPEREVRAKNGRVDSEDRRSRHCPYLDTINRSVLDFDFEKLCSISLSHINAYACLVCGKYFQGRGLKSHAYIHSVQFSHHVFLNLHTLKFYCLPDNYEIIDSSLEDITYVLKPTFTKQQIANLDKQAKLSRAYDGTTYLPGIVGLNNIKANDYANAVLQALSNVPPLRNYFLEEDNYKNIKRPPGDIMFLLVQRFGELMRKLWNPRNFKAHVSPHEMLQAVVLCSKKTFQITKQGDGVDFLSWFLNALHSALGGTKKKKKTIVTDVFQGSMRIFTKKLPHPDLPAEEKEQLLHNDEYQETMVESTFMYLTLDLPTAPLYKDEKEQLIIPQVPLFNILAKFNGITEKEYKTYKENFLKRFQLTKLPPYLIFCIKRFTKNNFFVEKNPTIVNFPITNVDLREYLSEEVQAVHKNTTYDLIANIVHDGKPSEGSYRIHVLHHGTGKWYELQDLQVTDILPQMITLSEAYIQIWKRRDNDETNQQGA
Sequence of UniProt P41240 (whole entry, looked up): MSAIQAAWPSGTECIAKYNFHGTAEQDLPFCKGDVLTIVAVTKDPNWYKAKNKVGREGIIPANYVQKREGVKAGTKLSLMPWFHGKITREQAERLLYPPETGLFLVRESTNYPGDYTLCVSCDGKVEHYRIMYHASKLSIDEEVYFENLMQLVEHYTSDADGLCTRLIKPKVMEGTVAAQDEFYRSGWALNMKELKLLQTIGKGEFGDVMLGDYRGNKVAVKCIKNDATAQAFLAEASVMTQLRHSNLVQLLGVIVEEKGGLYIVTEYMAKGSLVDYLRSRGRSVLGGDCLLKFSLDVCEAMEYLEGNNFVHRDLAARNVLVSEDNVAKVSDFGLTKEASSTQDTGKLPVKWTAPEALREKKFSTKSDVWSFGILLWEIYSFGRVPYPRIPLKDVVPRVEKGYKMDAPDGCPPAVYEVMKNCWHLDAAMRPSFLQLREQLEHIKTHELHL
Sequence of UniProt P30043 (whole entry, looked up): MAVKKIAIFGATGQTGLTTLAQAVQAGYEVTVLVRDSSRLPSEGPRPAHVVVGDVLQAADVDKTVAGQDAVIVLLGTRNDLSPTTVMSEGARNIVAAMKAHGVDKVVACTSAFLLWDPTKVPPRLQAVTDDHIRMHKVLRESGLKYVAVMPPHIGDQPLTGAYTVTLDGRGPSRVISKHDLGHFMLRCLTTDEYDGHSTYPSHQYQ
Sequence of UniProt P51955 (whole entry, looked up): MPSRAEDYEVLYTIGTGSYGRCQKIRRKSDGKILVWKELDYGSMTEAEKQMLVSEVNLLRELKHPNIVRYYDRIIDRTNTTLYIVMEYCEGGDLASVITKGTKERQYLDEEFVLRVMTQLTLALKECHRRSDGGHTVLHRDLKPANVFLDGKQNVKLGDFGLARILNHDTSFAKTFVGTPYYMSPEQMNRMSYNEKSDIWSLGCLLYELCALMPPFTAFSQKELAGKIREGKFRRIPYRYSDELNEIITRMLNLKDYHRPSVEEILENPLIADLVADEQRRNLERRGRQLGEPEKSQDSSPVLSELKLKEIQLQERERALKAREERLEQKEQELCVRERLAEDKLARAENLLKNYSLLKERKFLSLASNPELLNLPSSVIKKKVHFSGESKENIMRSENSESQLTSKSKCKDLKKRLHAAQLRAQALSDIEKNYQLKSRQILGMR
Sequence of UniProt P45983 (whole entry, looked up): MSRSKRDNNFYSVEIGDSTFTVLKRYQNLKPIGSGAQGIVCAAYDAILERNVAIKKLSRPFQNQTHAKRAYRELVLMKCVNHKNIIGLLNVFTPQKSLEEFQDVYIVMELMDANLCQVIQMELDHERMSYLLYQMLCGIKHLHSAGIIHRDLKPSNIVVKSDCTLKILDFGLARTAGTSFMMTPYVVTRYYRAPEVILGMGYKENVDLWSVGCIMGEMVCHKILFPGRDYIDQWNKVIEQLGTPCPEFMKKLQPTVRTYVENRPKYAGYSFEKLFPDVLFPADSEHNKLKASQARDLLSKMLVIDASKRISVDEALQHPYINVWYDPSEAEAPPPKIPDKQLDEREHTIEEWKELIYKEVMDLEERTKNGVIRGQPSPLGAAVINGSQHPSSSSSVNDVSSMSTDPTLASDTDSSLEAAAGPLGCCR
Sequence of UniProt P34947 (whole entry, looked up): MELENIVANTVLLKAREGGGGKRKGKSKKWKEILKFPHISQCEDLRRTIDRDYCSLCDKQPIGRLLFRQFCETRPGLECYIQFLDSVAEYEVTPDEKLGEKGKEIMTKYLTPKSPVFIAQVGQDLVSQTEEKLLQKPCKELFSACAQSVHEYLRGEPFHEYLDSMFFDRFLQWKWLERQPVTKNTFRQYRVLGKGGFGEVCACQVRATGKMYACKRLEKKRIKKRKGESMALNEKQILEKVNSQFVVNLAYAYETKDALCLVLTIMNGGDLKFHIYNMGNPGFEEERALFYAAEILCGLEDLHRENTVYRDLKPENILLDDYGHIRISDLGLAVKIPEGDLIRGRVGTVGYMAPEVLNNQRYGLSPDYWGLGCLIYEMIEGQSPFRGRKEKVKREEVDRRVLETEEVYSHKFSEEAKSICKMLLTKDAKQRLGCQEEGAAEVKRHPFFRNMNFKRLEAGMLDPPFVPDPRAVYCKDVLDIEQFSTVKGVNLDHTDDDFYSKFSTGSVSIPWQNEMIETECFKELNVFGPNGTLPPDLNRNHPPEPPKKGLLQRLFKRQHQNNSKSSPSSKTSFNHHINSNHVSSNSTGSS
Sequence of UniProt P43250 (whole entry, looked up): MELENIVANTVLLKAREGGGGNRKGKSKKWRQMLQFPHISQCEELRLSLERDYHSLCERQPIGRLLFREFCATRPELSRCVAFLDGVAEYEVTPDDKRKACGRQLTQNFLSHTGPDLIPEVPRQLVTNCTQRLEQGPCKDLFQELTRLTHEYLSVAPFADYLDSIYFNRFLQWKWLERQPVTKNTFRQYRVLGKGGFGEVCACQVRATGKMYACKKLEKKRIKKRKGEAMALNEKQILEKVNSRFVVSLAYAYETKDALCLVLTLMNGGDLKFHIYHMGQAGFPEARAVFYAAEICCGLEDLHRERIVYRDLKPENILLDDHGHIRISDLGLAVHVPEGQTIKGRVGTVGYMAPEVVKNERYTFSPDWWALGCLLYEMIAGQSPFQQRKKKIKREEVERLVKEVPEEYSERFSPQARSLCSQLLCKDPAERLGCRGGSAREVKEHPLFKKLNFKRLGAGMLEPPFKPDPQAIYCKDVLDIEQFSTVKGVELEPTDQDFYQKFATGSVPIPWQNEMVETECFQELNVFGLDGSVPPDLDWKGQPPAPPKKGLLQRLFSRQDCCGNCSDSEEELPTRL
Sequence of UniProt Q9UBE8 (whole entry, looked up): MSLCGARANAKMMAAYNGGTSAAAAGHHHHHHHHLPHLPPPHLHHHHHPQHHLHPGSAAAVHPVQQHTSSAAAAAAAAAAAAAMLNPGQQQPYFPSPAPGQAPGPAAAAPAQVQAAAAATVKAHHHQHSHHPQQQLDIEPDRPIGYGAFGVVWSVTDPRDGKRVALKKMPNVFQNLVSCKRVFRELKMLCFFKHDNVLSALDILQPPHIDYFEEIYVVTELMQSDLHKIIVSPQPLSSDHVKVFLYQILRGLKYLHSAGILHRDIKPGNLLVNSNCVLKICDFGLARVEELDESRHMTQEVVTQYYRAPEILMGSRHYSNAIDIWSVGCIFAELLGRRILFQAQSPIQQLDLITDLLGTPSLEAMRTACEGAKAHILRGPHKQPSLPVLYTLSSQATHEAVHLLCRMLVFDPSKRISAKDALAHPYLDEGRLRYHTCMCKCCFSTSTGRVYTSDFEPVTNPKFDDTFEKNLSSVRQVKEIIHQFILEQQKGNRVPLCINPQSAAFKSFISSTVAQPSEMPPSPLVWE

C=CC(=O)N1CCC[C@@H](n2nc(-c3ccc(Oc4ccccc4)cc3)c3c(N)ncnc32)C1
remaining activity (SYK; 1 µM): 110%

Cc1cc(NC(=O)c2cccc(NC(=O)/C=C/CN(C)C)c2)ccc1Nc1nccc(-c2cccnc2)n1
remaining activity (MAPK8 (Homo sapiens, UniProt P45983); enzyme activity, inhibitor; 4.938 µM, 6 h, unit not given, together with: GSH 10 mM pre-incubation; reference: vehicle): 0.255

O=C(O)c1ccc(Nc2ncc3c(n2)-c2ccc(Cl)cc2C(c2c(F)cccc2F)=NC3)cc1
remaining activity (GSK3α(h); kinase activity; 1 µM): 110%

COc1cc(F)ccc1-c1ncnc(Nc2cccc(C[S@](C)(=N)=O)c2)n1
remaining activity (GRK5 (Homo sapiens, UniProt P34947); kinase activity; 10 µM, together with: 10 µM ATP): 114%

O=C(O)CCc1nc2ncccn2n1
Kd (Ubiquitin carboxyl-terminal hydrolase 39, ZnF-UBD domain (Homo sapiens, UniProt Q53GS9)): > 1 mM

Cc1ccc(NC(=O)c2ccc(C)c(C(F)(F)F)c2)cc1C#Cc1nn(C2CCC(O)CC2)c2ncnc(N)c12 (stereo not shown)
remaining activity (Phosphatidylinositol 4,5-bisphosphate 3-kinase catalytic subunit alpha isoform, with p65 alpha (Pik3ca, Mus musculus, UniProt P42337); enzyme activity, inhibitor; 10 µM, p110a/p65a)(m mouse, together with: ATP 10 µM): 94%

O=C(O)C[C@H](O)[C@H](O)CO
z-scored log2 fold change (binding, equilibrium dialysis LC-MS; 5 µM, thermostabilized A2AR-BRIL construct; reference: no-protein control, direction not given): 0.269

Nc1ncnc2c1ncn2C1OC(CSCCNCc2cccc(-c3ccccc3)c2)C(O)C1O (stereo not shown)
remaining activity (DNA adenine methyltransferase CamA (Clostridioides difficile, UniProt Q183J3); 10 µM): 11.7%

O=C(NC1CCC1)c1ccc2nc(-c3cccc(NS(=O)(=O)NCCN4CCCCC4)c3)cn2c1
remaining activity (BMPR2 (Homo sapiens, UniProt Q13873); enzyme activity; 10 µM): 100%

O=C1NC(=O)/C(=C/c2ccc(-c3ccc(F)cc3O)o2)S1
remaining activity (NEK2 (Homo sapiens, UniProt P51955); enzyme activity; 10 µM): 136%

CNCC(=O)O
remaining activity (Sodium- and chloride-dependent glycine transporter 2 (Homo sapiens, UniProt Q9Y345); glycine uptake, inhibitor, [3H]glycine uptake; 100 µM, log concentration -1, together with: [3H]glycine; reference: no inhibitor): 91.5%

O=C(O)c1ccc(O)cc1
z-scored log2 fold change (binding, equilibrium dialysis LC-MS; 5 µM, thermostabilized A2AR-BRIL construct; reference: no-protein control, direction not given): -0.134

COc1cc(N2CCN(C)CC2)ccc1Nc1nc(N)n(C(=S)NCc2c(Cl)cccc2Cl)n1
remaining activity (NLK (Homo sapiens, UniProt Q9UBE8); enzyme activity; 10 µM; reference: control): 20%

O=C(O)c1cccc(-c2noc(-c3ccccc3F)n2)c1
remaining activity (BLVRB (Homo sapiens, UniProt P30043); enzyme activity, inhibitor; 0.25 µM): 60%

COc1ccc(F)cc1C(=O)NCc1ccc(-c2nn([C@@H](C)C(F)(F)F)c(N)c2C(N)=O)cc1
remaining activity (GRK6 (Homo sapiens, UniProt P43250); kinase activity, inhibitor, HotSpot radiometric; 100 nM, together with: ATP 10 µM): 30.5 ± 17.1%

COc1cc(-c2cncc3c2CN(C)Cc2cc(N4CCNCC4)ccc2-3)cc(OC)c1OC
remaining activity (Phosphatidylinositol 4,5-bisphosphate 3-kinase catalytic subunit alpha isoform, with p85 alpha (Pik3ca, Mus musculus, UniProt P42337); kinase activity; 1 µM, p110a/p85a)(m mouse, together with: ATP 10 µM; reference: DMSO): 102%

Cc1[nH]c(/C=C2\C(=O)Nc3ccc(F)cc32)c(C)c1C(=O)N[C@H]1CCN(C(=O)N(C)C)C1
remaining activity (SYK; kinase activity, inhibitor; 0.1 µM; reference: no-compound control): 105%

COc1cc(Nc2ncc3c(n2)-c2ccc(Cl)cc2C(c2c(F)cccc2OC)=NC3)ccc1C(=O)O
remaining activity (YES1; kinase activity; 1 µM): 11%

CC#CC(=O)N1CCC[C@H]1c1nc(-c2ccc(C(=O)Nc3ccccn3)cc2)c2c(N)nccn12
remaining activity (CSK (Homo sapiens, UniProt P41240); kinase activity, inhibitor, HotSpot radiometric; 100 nM, together with: ATP 10 µM): 97.75 ± 0.2%

A few entries again:
CNCC(=O)O
remaining activity (Sodium- and chloride-dependent glycine transporter 2 (Homo sapiens, UniProt Q9Y345); glycine uptake, inhibitor, [3H]glycine uptake; 100 µM, log concentration -1, together with: [3H]glycine; reference: no inhibitor): 91.5%

CC#CC(=O)N1CCC[C@H]1c1nc(-c2ccc(C(=O)Nc3ccccn3)cc2)c2c(N)nccn12
remaining activity (CSK (Homo sapiens, UniProt P41240); kinase activity, inhibitor, HotSpot radiometric; 100 nM, together with: ATP 10 µM): 97.75 ± 0.2%
